Published values pooled from the literature.
Every numbered part comes from another study and shows a few of its results, in no order.

Block 1
Target: Histone acetyltransferase KAT6A, both winged helices, GST fusion (KAT6A, Homo sapiens, UniProt Q92794, residues 1-181)
Method: protein binding microarray
Molecule type: double-stranded DNA, one strand shown
Sample: in vitro
Tested at: not given
Notes: 8-mer, flanks averaged, mean of 2 arrays, mostly near background
Baseline: not given
Direction: higher = stronger binding
Target sequence (chain): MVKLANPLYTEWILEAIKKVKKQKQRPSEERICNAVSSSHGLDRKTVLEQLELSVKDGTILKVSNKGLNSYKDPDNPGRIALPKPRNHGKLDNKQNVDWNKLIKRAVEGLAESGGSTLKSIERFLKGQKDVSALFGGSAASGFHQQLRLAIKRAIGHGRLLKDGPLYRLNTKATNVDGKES
| Oligonucleotide | E-score |
| --- | --- |
| ATCTTCGA | -0.00796 |
| CATCGTCA | -0.113 |
| ATTTTCGC | 0.0989 |
| AAATCCGA | 0.027 |
| GTCCCCAA | -0.105 |

Block 2
Target: Cyclic AMP-dependent transcription factor ATF-1 (ATF1, Homo sapiens, UniProt P18846, residues 1-271, full length assumed)
Method: protein-binding microarray
Molecule type: double-stranded DNA, one strand shown
Sample: in vitro
Tested at: not given
Notes: k-mer, scored over probes, only values ≥0.25
Direction: higher = stronger binding
Target sequence (chain): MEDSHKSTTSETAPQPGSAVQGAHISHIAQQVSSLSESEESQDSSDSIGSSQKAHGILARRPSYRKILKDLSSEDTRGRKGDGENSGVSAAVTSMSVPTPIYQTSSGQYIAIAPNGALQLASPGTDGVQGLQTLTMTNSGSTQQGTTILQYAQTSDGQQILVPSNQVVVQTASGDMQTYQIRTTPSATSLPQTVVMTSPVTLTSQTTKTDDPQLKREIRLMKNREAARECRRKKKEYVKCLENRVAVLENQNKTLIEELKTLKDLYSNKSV
| Oligonucleotide | E-score |
| --- | --- |
| GGGGTGA | 0.26 |
| CGTGAAG | 0.252 |
| ATGACCA | 0.252 |

Block 3
Target: RNA binding protein fox-1 homolog 2, RRM domain, GST-SBP tag (RBFOX2, Homo sapiens, UniProt O43251-10, residues 100-194)
Method: RNA Bind-n-Seq
Molecule type: RNA
Sample: in vitro
Tested at: 365 nM
Notes: natural RNA segment, single round, ends assumed
Baseline: no-protein control
Direction: higher = stronger binding
| Oligonucleotide | RBNS enrichment (R) |
| --- | --- |
| GGGAGUUCUACAGUCCGACGAUCGCGGAAGGUUUCUUUAUGUUAUUUUGUUAAUUUAUUGGGACUCUGUGUAAGGCCAGGCUUUAGUGGUCAUUAGACACCACAUGUGUUAUGAGCCCCUUACCCAUAGGGUUUGGAAUUCUCGGGUGCCAA | 0.448 |
| GGGAGUUCUACAGUCCGACGAUCCCCUCAAGAUCCUCAAGUUGAAUGUUUUGUAGAUCUUCAAGGAUAAGCCUUCUGCUUAUUCUCCUAGCACAAUGCAAGGAAAUUUUACUUUUUAAAUCUUAGAGAGAUUCUGGAAUUCUCGGGUGCCAA | 6.23 |
| GGGAGUUCUACAGUCCGACGAUCUGAGGAGUAUCUCUGCUCGGAAGCAUCUGUGGUGGUGUGAUGUGUUGUUCUGUGUACUGUAUGUGACACAAGCCUACAGGAUUUGCACUAAGAAAAGCUUGGUAGGAGCUUGGAAUUCUCGGGUGCCAA | 0.75 |

Single results of other studies
| Substance | target | assay | test system | conditions | how to read | quantity | result |
| --- | --- | --- | --- | --- | --- | --- | --- |
| PhoQ, residues 284 288 289 292 302 303 TVTVVA | PhoP, residues 12 14 15 18 19 TTLRV (Escherichia coli, UniProt P23836) | Sort-seq, item: YFP reporter | E. coli | PhoQ-PhoP variant library, together with: 10 µM Mg2+ | baseline: high Mg2+ state, higher = stronger signaling | fold induction | 6.81 |

Excerpt of the above (block 1):
| Oligonucleotide | E-score |
| --- | --- |
| GTCCCCAA | -0.105 |
